Assay results pooled from the literature.
Each line is one published result; not all experiments were run side by side. ± gives the spread as reported.

Structure (SMILES)	test	system	conditions	scale	endpoint	result
CSc1cc(C)[nH]c(=O)c1CN1CCc2c(Cl)c3c(c(C)c2C1=O)OC(C)(C1CCC(N(C)C)CC1)O3 (stereo not drawn)	–	mouse KARPAS-422 xenograft, tumour	oral, 10 mg/kg once daily, day 12	–	H3K27me3 reduction	43%
CN(C)C(=O)c1ccnc(N2Cc3cn(Cc4ccc(F)cc4F)nc3C2)n1	synaptic transmission	mouse, hippocampus Schaffer collaterals	oral, 5 mg/kg, 1 h before recording	–	fEPSP peak amplitude	no effect
Cc1nc(C)c(C=[N+]([O-])C(C)(C)C)nc1C	Western blot, refers to: PGC-1α	mouse, MPTP model, substantia nigra cytosol	10 mg/kg	–	protein level increase	27.1%
CCn1cnc(C[C@H](NC(=O)c2nccnc2N)C(=O)N2CCC[C@H]2C(N)=O)c1	–	Swiss albino mice	iv, 10 µmol/kg, with: pentobarbital 50 mg/kg ip	–	sleeping time	47 ± 11 min
Brc1ccc(Nc2nc(NN=Cc3c[nH]c4ccccc34)nc(N3CCOCC3)n2)cc1	western blot	mouse A549 xenograft, tumour tissue	intraperitoneal, 70 mg/kg single dose	–	LC3-II level	increased
CC(=O)N/C(N)=N/C(=N\S(=O)(=O)c1ccc(C(F)(F)F)cc1)N1C[C@H](c2ccccc2)C(c2ccc(Cl)cc2)=N1	hyperinsulinaemic euglycaemic clamp	diet-induced obese mice, wild-type and β-arrestin-2 knockout	oral, 1 mg/kg, single dose	–	hepatic glucose production	decreased
N#Cc1[nH]nnc1-c1cccc(Oc2ccccc2)c1	–	ZDF rat, male	oral, twice daily, 200 mg/kg/day, one week	–	HbA1c elevation suppression	0.73%
CC(C)c1cnc(-c2cc(Cl)ccc2F)cc1Nc1ccncc1C(=O)NC(CO)CO	refers to: pSMAD2	4T1 tumour-bearing mouse, tumour	10 mg/kg twice daily, 0 to 8 h average	reference: vehicle	inhibition	23%
C=CC(=O)N1C[C@H](C)N(c2nc(OC[C@@]34CCCN3C[C@H](F)C4)nc3c(F)c(-c4ccc(F)c5sc(N)c(C#N)c45)c(C(F)(F)F)cc23)C[C@H]1C	tumour growth	mouse, MIA PaCa-2 xenograft	oral, daily, 28 days	–	ED90	1.8 mg/kg
Cc1cc2c(cc1C1(c3ncc(C(=O)O)cn3)CC1)C(C)(C)CCC2(C)C	RNA sequencing, refers to: Rbp1	rat, brain	dose not given, 24 h	reference: vehicle	log2 fold change	-0.36
CC(=O)[C@]12NC(C)(C)C[C@@]1(C)C(=O)C1=C2c2c(c3c4n2C(C)(C)CC2=C4[C@@]4(CC(C)(C)N[C@@](C)(C4)C2=O)CC3(C)C)C(=O)C(C)(C)N1 (racemic)	acetic acid-induced writhing	mouse	intraperitoneal, 5 mg/kg, 0.5 h, writhes counted over 30 min	–	inhibition	93.1 ± 0.8%
Cn1ccc(-c2cc(Cl)c(Cl)c3[nH]c4c(c23)CN(C(=O)CO)CC4)n1	plasma CXCL10, inhibitor	cGAS I309T mouse, whole blood	with: 100 bp dsDNA	–	IC50	16.2 µM
COc1c2c(cc3oc(CO)cc(=O)c13)O[C@H](C(C)(C)O)C2	analgesia	mouse	oral, 4 mg/kg, 1.5 h	–	hot plate latency	14.8 ± 0.69 s
N=C(N)NCCC[C@@H]1NC(=O)[C@H](CCCCNC(=O)CCOCCOCCOCCOCCOCCOCCOCCOCCOCCOCCOCCOCCNC(=O)CCSC2CC(=O)N(CCC(=O)NCCCC[C@H](NC(=O)CCC(C(=O)O)N3CCN(C(CCC(=O)N[C@@H](CCCCNC(=O)CCN4C(=O)CC(SCCC(=O)NCCOCCOCCOCCOCCOCCOCCOCCOCCOCCOCCOCCOCCC(=O)NCCCC[C@@H]5NC(=O)[C@@H](Cc6ccc(O)cc6)NC(=O)[C@H](CC(=O)O)NC(=O)CNC(=O)[C@H](CCCNC(=N)N)NC5=O)C4=O)C(=O)N(CCCNC(=O)CN4CCN(CC(=O)O)CCN(CC(=O)O)CCN(CC(=O)O)CC4)CCCNC(=O)CN4CCN(CC(=O)O)CCN(CC(=O)O)CCN(CC(=O)O)CC4)C(=O)O)CCN(C(CCC(=O)N[C@@H](CCCCNC(=O)CCN4C(=O)CC(SCCC(=O)NCCOCCOCCOCCOCCOCCOCCOCCOCCOCCOCCOCCOCCC(=O)NCCCC[C@@H]5NC(=O)[C@@H](Cc6ccc(O)cc6)NC(=O)[C@H](CC(=O)O)NC(=O)CNC(=O)[C@H](CCCNC(=N)N)NC5=O)C4=O)C(=O)N(CCCNC(=O)CN4CCN(CC(=O)O)CCN(CC(=O)O)CCN(CC(=O)O)CC4)CCCNC(=O)CN4CCN(CC(=O)O)CCN(CC(=O)O)CCN(CC(=O)O)CC4)C(=O)O)CC3)C(=O)N(CCCNC(=O)CN3CCN(CC(=O)O)CCN(CC(=O)O)CCN(CC(=O)O)CC3)CCCNC(=O)CN3CCN(CC(=O)O)CCN(CC(=O)O)CCN(CC(=O)O)CC3)C2=O)NC(=O)[C@@H](Cc2ccc(O)cc2)NC(=O)[C@H](CC(=O)O)NC(=O)CNC1=O (stereo partly drawn) [gallium-68 labelled]	MR imaging	SCID mice, U-87 MG xenograft tumour	Gd 0.027 mmol/kg, 1 h, 1.0 T, unit not given	reference: before injection	MR contrast enhancement	3.06
COc1ccc(C2CC(c3ccc(C)cc3)=Nc3ccccc3S2)cc1 (stereo not drawn)	–	Wistar rat, STZ-induced diabetes, serum	oral, 20 mg/kg once daily, 28 days	–	AST (SGOT)	21.8 ± 2.16 IU/L
O=C1NCC(c2ccc(F)c(F)c2)C1C(=O)Nc1ccccc1F (stereo not drawn)	–	whole plants	concentration not given	–	herbicidal activity	active
C[C@H](NC(=O)CCCCCNC(=S)Nc1ccc2c(c1)C(=O)OC21c2ccc(O)cc2Oc2cc(O)ccc21)C(=O)N[C@@H](C)C(=O)N1CCC[C@H]1C(=O)N[C@@H](CCC(=O)O)C(=O)N1CCC[C@H]1C(=O)N[C@@H](CCC(=O)O)C(=O)N[C@H](C(=O)NCC(=O)N[C@@H](CCC(=O)O)C(=O)O)[C@@H](C)O	Western blot	mouse, liver ischaemia-reperfusion, liver	intravenous, 15 mg/kg	–	Ho-1 and Nqo1 protein level	increased

Structure (SMILES)	test	system	conditions	scale	endpoint	result
O=C(O)c1ccc(/C=C2\SC(=S)N(Cc3cccc(C(F)(F)F)c3)C2=O)cc1	–	mouse, high-fat diet, adipose tissue	2.5 mg/kg once daily, 6 weeks	–	caspase-1 cleavage	decreased
C=C(c1ccc(C(=O)O)c(F)c1)c1cc2c(cc1C)C(C)(C)C=CC2(C)C	RNA sequencing, refers to: Dlx2 mRNA	rat, brain	dose not given, 24 h, single dose	reference: vehicle	log2 fold change	0.48
Nn1c(S)nnc1CCN(c1ccc(Cl)cc1)S(=O)(=O)c1ccccc1	seizure	maximal electroshock model	200 mg/kg	–	protection	66%
Nc1ncnc2c1sc1sc3c(N)ncnc3c12	ABTS	–	concentration not given	–	radical scavenging	78%
Cc1cc(O)c(C=O)c2c1C(=O)Oc1c(CO)c(O)c3c(c1O2)C(O)OC3=O (stereo not drawn)	copulatory behaviour test	rat, male, streptozotocin-induced diabetes	5 mg/kg, day 63	–	Intromission latency	895 ± 32.9 s
Cc1cc(=O)[nH]c2ccc(OCCCC(=O)N3CCOCC3)cc12	–	rat, isolated spontaneously beating atria	100 µM	reference: baseline	contraction force increase	19 ± 4%
C[C@@H]1Cc2c([nH]c3ccccc23)[C@@H](c2c(F)cc(/C=C/C(=O)O)cc2F)N1C12CC(C1)C2	–	patients ER+ advanced breast cancer	dose not given, monotherapy	–	overall response rate	5%
C=C(c1ncc(C(=O)O)cn1)c1cc2c(cc1C)C(C)(C)CCC2(C)C	RNA sequencing, refers to: Sfrp5	rat, brain	dose not given, 24 h	reference: vehicle	log2 fold change	-0.2
C[N+](C)(CF)CCO	aggregometry	mouse platelet-rich plasma	20 µM, with: with or without ADP	–	platelet aggregation	no effect
COc1ccc(OC)c(C(=Cc2ccc(O)c(OC)c2)C(=O)NCCc2ccc(O)cc2)c1	refers to: CD68, GFAP	C57BL mice, MPTP/p Parkinson model, midbrain	75 mg/kg, 8 weeks	reference: MPTP/p vehicle	glial activation	inhibited
CC(C)[C@H](NC(=O)CN)C(=O)N[C@@H](CCCCN)C(=O)NCC(=O)N[C@@H](CC(=O)O)C(=O)N[C@@H](CCCCN)C(=O)NCC(=O)N[C@@H](CC(N)=O)C(=O)N1CCC[C@H]1C(=O)NCC(=O)N[C@@H](Cc1c[nH]c2ccccc12)C(=O)N1CCC[C@H]1C(=O)NCC(=O)N[C@@H](C)C(=O)N1CCC[C@H]1C(=O)O	–	C6 glioma, rat	100 µg/mL coating, peptide-coated plates	–	spreading cells	82%
C[C@@H](NC(=O)Cc1ccc(Cl)c(SC2C(=O)CC(c3c(Cl)cccc3Cl)CC2=O)c1)c1cccc2ccccc12 (stereo partly drawn)	flow cytometry	C57BL/6 mice, B16-F10 melanoma allograft, tumour	intratumoral, 50 mg/kg/day, 7 days	–	IFN-γ+ CD4+ T cells	increased
CN1CCC[C@]1(C)/C=C/S(=O)(=O)NC(=O)Nc1c2c(cc3c1CCC3)CCC2	IL-1β release, ex vivo whole blood	human, whole blood	oral, 250 mg single dose, 24 h, with: LPS and ATP	–	inhibition	> 90%
CC(C)(C)C(=O)NNC(=O)/C=C\n1cnc(-c2cc(C(F)(F)F)cc(C(F)(F)F)c2)n1	–	mice, MOG35-55 EAE	oral, 7.5 mg/kg, 12 days, from hindlimb paralysis	reference: vehicle, decrease	cumulative disease score	75 ± 4.32%
COc1ccc2c(c1)c(CC(=O)OCC(=O)OC(C)(C)C)c(C)n2C(=O)c1ccc(Cl)cc1	hot plate test	BALB/c mice	75 mg/kg, 60 min	–	latency of nociceptive response	16.8 ± 2.11 s
CN1Cc2c(Cl)cc(Cl)cc2C(c2ccc(S(=O)(=O)NCCOCCOCCNC(=O)C(O)C(O)C(=O)NCCOCCOCCNS(=O)(=O)c3ccc(C4CN(C)Cc5c(Cl)cc(Cl)cc54)cc3)cc2)C1 (stereo not drawn)	–	Sprague Dawley rat, urine	oral, 3 mg/kg, 16 h	reference: control	urinary sodium	11%

For quick reference, copied from above:
Structure (SMILES)	test	system	conditions	scale	endpoint	result
N=C(N)NCCC[C@@H]1NC(=O)[C@H](CCCCNC(=O)CCOCCOCCOCCOCCOCCOCCOCCOCCOCCOCCOCCOCCNC(=O)CCSC2CC(=O)N(CCC(=O)NCCCC[C@H](NC(=O)CCC(C(=O)O)N3CCN(C(CCC(=O)N[C@@H](CCCCNC(=O)CCN4C(=O)CC(SCCC(=O)NCCOCCOCCOCCOCCOCCOCCOCCOCCOCCOCCOCCOCCC(=O)NCCCC[C@@H]5NC(=O)[C@@H](Cc6ccc(O)cc6)NC(=O)[C@H](CC(=O)O)NC(=O)CNC(=O)[C@H](CCCNC(=N)N)NC5=O)C4=O)C(=O)N(CCCNC(=O)CN4CCN(CC(=O)O)CCN(CC(=O)O)CCN(CC(=O)O)CC4)CCCNC(=O)CN4CCN(CC(=O)O)CCN(CC(=O)O)CCN(CC(=O)O)CC4)C(=O)O)CCN(C(CCC(=O)N[C@@H](CCCCNC(=O)CCN4C(=O)CC(SCCC(=O)NCCOCCOCCOCCOCCOCCOCCOCCOCCOCCOCCOCCOCCC(=O)NCCCC[C@@H]5NC(=O)[C@@H](Cc6ccc(O)cc6)NC(=O)[C@H](CC(=O)O)NC(=O)CNC(=O)[C@H](CCCNC(=N)N)NC5=O)C4=O)C(=O)N(CCCNC(=O)CN4CCN(CC(=O)O)CCN(CC(=O)O)CCN(CC(=O)O)CC4)CCCNC(=O)CN4CCN(CC(=O)O)CCN(CC(=O)O)CCN(CC(=O)O)CC4)C(=O)O)CC3)C(=O)N(CCCNC(=O)CN3CCN(CC(=O)O)CCN(CC(=O)O)CCN(CC(=O)O)CC3)CCCNC(=O)CN3CCN(CC(=O)O)CCN(CC(=O)O)CCN(CC(=O)O)CC3)C2=O)NC(=O)[C@@H](Cc2ccc(O)cc2)NC(=O)[C@H](CC(=O)O)NC(=O)CNC1=O (stereo partly drawn) [gallium-68 labelled]	MR imaging	SCID mice, U-87 MG xenograft tumour	Gd 0.027 mmol/kg, 1 h, 1.0 T, unit not given	reference: before injection	MR contrast enhancement	3.06
COc1ccc(C2CC(c3ccc(C)cc3)=Nc3ccccc3S2)cc1 (stereo not drawn)	–	Wistar rat, STZ-induced diabetes, serum	oral, 20 mg/kg once daily, 28 days	–	AST (SGOT)	21.8 ± 2.16 IU/L
O=C1NCC(c2ccc(F)c(F)c2)C1C(=O)Nc1ccccc1F (stereo not drawn)	–	whole plants	concentration not given	–	herbicidal activity	active
C[C@H](NC(=O)CCCCCNC(=S)Nc1ccc2c(c1)C(=O)OC21c2ccc(O)cc2Oc2cc(O)ccc21)C(=O)N[C@@H](C)C(=O)N1CCC[C@H]1C(=O)N[C@@H](CCC(=O)O)C(=O)N1CCC[C@H]1C(=O)N[C@@H](CCC(=O)O)C(=O)N[C@H](C(=O)NCC(=O)N[C@@H](CCC(=O)O)C(=O)O)[C@@H](C)O	Western blot	mouse, liver ischaemia-reperfusion, liver	intravenous, 15 mg/kg	–	Ho-1 and Nqo1 protein level	increased
O=C(O)c1ccc(/C=C2\SC(=S)N(Cc3cccc(C(F)(F)F)c3)C2=O)cc1	–	mouse, high-fat diet, adipose tissue	2.5 mg/kg once daily, 6 weeks	–	caspase-1 cleavage	decreased
C=C(c1ccc(C(=O)O)c(F)c1)c1cc2c(cc1C)C(C)(C)C=CC2(C)C	RNA sequencing, refers to: Dlx2 mRNA	rat, brain	dose not given, 24 h, single dose	reference: vehicle	log2 fold change	0.48
